Results pooled from the literature.
± gives the spread as reported.
KCNH2: Voltage-gated inwardly rectifying potassium channel KCNH2 (KCNH2, Homo sapiens, UniProt Q12809)
Chain of UniProt Q12809 (whole entry, looked up): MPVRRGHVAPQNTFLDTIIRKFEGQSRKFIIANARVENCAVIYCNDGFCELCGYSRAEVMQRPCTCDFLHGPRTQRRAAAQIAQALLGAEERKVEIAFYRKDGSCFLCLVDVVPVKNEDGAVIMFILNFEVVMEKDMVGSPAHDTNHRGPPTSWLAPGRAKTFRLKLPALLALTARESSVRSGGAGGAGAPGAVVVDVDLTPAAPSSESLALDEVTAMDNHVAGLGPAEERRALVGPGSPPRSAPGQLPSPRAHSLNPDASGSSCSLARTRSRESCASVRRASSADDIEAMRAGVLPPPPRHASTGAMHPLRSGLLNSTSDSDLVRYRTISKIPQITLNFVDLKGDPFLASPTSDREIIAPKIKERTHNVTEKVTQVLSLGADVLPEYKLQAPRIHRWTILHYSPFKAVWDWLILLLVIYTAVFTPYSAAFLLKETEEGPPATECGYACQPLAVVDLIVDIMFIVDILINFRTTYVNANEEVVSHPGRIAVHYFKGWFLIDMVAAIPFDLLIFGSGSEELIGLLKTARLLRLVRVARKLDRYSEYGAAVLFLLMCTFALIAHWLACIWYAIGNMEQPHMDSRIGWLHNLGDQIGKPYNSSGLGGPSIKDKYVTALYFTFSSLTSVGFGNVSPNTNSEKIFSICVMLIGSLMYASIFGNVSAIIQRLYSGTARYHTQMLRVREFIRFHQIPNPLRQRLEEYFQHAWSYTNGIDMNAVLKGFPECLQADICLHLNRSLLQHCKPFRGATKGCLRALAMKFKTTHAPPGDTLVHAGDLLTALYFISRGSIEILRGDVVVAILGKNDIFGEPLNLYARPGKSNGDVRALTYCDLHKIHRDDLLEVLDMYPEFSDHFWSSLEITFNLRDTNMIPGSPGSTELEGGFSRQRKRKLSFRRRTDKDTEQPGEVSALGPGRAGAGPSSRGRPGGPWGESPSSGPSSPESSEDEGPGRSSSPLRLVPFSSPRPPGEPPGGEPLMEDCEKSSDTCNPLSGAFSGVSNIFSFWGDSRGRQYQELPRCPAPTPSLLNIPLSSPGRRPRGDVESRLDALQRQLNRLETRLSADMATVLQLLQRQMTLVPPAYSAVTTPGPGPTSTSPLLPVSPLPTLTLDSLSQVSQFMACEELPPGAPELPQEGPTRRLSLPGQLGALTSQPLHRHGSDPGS

SMILES	tested on	assay	test system	setting	how to read	measurement	result
C=C(C[C@@]12C[C@@H](C)C[C@H](O1)[C@H]1O[C@]3(C[C@H]1O2)NC[C@H](C)C[C@@H]3C)[C@H]1O[C@@](O)([C@@H](O)[C@@H]2C[C@H]3O[C@@]4(CC[C@]5(CC=C[C@@H](/C=C/CCC(=O)O)O5)O4)[C@H](C)C[C@H]3O2)[C@H](C)C[C@@H]1C	KCNH2	ion current, inhibitor, patch clamp	HEK293 expressing hERG	room temperature, peak tail current		IC50	0.84 µM
Nc1ncnc2c([C@@H]3N[C@H](CO)[C@@H](O)[C@H]3O)c[nH]c12	Zaire ebolavirus	viral replication	HeLa, Kikwit	400 µM		inhibition	99.7%
CC[C@H](C)[C@H](NC(=O)[C@H](CC(C)C)NC(=O)[C@H](Cc1c[nH]c2ccccc12)NC(=O)[C@H](CCC(N)=O)NC(=O)[C@@H](NC(=O)[C@H](Cc1ccccc1)NC(=O)[C@H](C)NC(=O)[C@H](CCCCNC(=O)COCCOCCNC(=O)COCCOCCNC(=O)CC[C@H](NC(=O)CCCCCCCCCCCCCCCCCCC(=O)O)C(=O)O)NC(=O)[C@H](CCC(N)=O)NC(=O)[C@H](C)NC(=O)[C@@H](NC(=O)[C@H](CCCCN)NC(=O)[C@H](CC(=O)O)NC(=O)[C@H](CC(C)C)NC(=O)C(C)(C)NC(=O)[C@@H](NC(=O)[C@H](CO)NC(=O)[C@H](Cc1ccc(O)cc1)NC(=O)[C@H](CC(=O)O)NC(=O)[C@H](CO)NC(=O)[C@@H](NC(=O)[C@H](Cc1ccccc1)NC(=O)[C@@H](NC(=O)CNC(=O)[C@H](CCC(=O)O)NC(=O)C(C)(C)NC(=O)[C@@H](N)Cc1ccc(O)cc1)[C@@H](C)O)[C@@H](C)O)[C@@H](C)CC)[C@@H](C)CC)C(C)C)C(=O)N[C@@H](C)C(=O)NCC(=O)NCC(=O)N1CCC[C@H]1C(=O)N[C@@H](CO)C(=O)N[C@@H](CO)C(=O)NCC(=O)N[C@@H](C)C(=O)N1CCC[C@H]1C(=O)N1CCC[C@H]1C(=O)N1CCC[C@H]1C(=O)N[C@@H](CO)C(N)=O			healthy subjects	all MAD doses		subjects with catheter site bruise	14.3%
CC[C@H](C)[C@H](NC(=O)[C@H](CC(C)C)NC(=O)[C@H](Cc1c[nH]c2ccccc12)NC(=O)[C@H](CCC(N)=O)NC(=O)[C@@H](NC(=O)[C@H](Cc1ccccc1)NC(=O)[C@H](C)NC(=O)[C@H](CCCCNC(=O)COCCOCCNC(=O)COCCOCCNC(=O)CC[C@H](NC(=O)CCCCCCCCCCCCCCCCCCC(=O)O)C(=O)O)NC(=O)[C@H](CCC(N)=O)NC(=O)[C@H](C)NC(=O)[C@@H](NC(=O)[C@H](CCCCN)NC(=O)[C@H](CC(=O)O)NC(=O)[C@H](CC(C)C)NC(=O)C(C)(C)NC(=O)[C@@H](NC(=O)[C@H](CO)NC(=O)[C@H](Cc1ccc(O)cc1)NC(=O)[C@H](CC(=O)O)NC(=O)[C@H](CO)NC(=O)[C@@H](NC(=O)[C@H](Cc1ccccc1)NC(=O)[C@@H](NC(=O)CNC(=O)[C@H](CCC(=O)O)NC(=O)CCNC(=O)C(C)(C)c1cc(F)cc(C#N)c1)[C@@H](C)O)[C@@H](C)O)[C@@H](C)CC)[C@@H](C)CC)C(C)C)C(=O)N[C@@H](C)C(=O)NCC(=O)NCC(=O)N1CCC[C@H]1C(=O)N[C@@H](CO)C(=O)N[C@@H](CO)C(=O)NCC(=O)N[C@@H](C)C(=O)N1CCC[C@H]1C(=O)N1CCC[C@H]1C(=O)N1CCC[C@H]1C(=O)N[C@@H](CO)C(N)=O		measured: Diarrhea	human with obesity or overweight	subcutaneous, up to 5 mg once weekly, multiple ascending dose		treatment-emergent adverse events	50%
CC(C)(C)[C@H](NC(=O)C(F)(F)F)C(=O)N1C[C@H]2[C@@H]([C@H]1C(=O)N[C@H](C#N)C[C@@H]1CCNC1=O)C2(C)C			human, plasma	oral, 500 mg single dose		half-life	18.5 h
Cn1cnc(Cn2c(=O)[nH]/c(=N\c3cc4cn(C)nc4cc3Cl)n(Cc3cc(F)c(F)cc3F)c2=O)n1			human, moderate renal impairment	oral, 375 mg, hypertriglyceridaemia TEAE, Mild severity		patients with adverse event	0%
CNC(=O)[C@@H](NC(=O)[C@H](CC(C)C)[C@H](O)C(=O)NO)C(C)(C)C	human fibrinogen	SDS-PAGE	Daboia russelii	concentration not given, unit not given, together with: RJ venom	baseline: untreated fibrinogen	remaining fibrinogen Bβ chain	0.836
CC(=O)c1c(O)c(C)c(O)c(Cc2c(O)c3c(c(C(=O)/C=C/c4ccccc4)c2O)OC(C)(C)C=C3)c1O	KCNH2	potassium current, whole-cell patch clamp	HEK293 expressing hERG1	4 µM, at 0 mV	baseline: control	activation rate acceleration	1.5 ± 0.1 fold
CC(C)C[C@H](NC(=O)CNC(=O)[C@H](CC(C)C)NC(=O)[C@H](CC(C)C)NC(=O)[C@H](CCCCN)NC(=O)[C@H](CCCCN)NC(=O)[C@H](CC(C)C)NC(=O)[C@H](CCCCN)NC(=O)[C@H](CC(C)C)NC(=O)[C@H](CC(C)C)NC(=O)[C@@H](N)CCCCN)C(=O)N[C@@H](CC(C)C)C(=O)N[C@@H](CCCCN)C(=O)O	HEK-293T	cell death		24 h, 10% cell death		lowest cytotoxic concentration	256 µg/mL
CC[C@H](C)[C@H](NC(=O)[C@H](CC(C)C)NC(=O)[C@H](Cc1c[nH]c2ccccc12)NC(=O)[C@H](CCC(N)=O)NC(=O)[C@@H](NC(=O)[C@H](Cc1ccccc1)NC(=O)[C@H](C)NC(=O)[C@H](CCCCNC(=O)COCCOCCNC(=O)COCCOCCNC(=O)CC[C@H](NC(=O)CCCCCCCCCCCCCCCCCCC(=O)O)C(=O)O)NC(=O)[C@H](CCC(N)=O)NC(=O)[C@H](C)NC(=O)[C@@H](NC(=O)[C@H](CCCCN)NC(=O)[C@H](CC(=O)O)NC(=O)[C@H](CC(C)C)NC(=O)C(C)(C)NC(=O)[C@@H](NC(=O)[C@H](CO)NC(=O)[C@H](Cc1ccc(O)cc1)NC(=O)[C@H](CC(=O)O)NC(=O)[C@H](CO)NC(=O)[C@@H](NC(=O)[C@H](Cc1ccccc1)NC(=O)[C@@H](NC(=O)CNC(=O)[C@H](CCC(=O)O)NC(=O)C(C)(C)NC(=O)[C@@H](N)Cc1ccc(O)cc1)[C@@H](C)O)[C@@H](C)O)[C@@H](C)CC)[C@@H](C)CC)C(C)C)C(=O)N[C@@H](C)C(=O)NCC(=O)NCC(=O)N1CCC[C@H]1C(=O)N[C@@H](CO)C(=O)N[C@@H](CO)C(=O)NCC(=O)N[C@@H](C)C(=O)N1CCC[C@H]1C(=O)N1CCC[C@H]1C(=O)N1CCC[C@H]1C(=O)N[C@@H](CO)C(N)=O			human, plasma	subcutaneous, 10.0 mg once weekly, week 15, multiple doses		Cmax	2200 ng/mL
COP(=S)(OC)Oc1ccc([N+](=O)[O-])c(C)c1	rat CYP2D	bufuralol 1'-hydroxylation, non-competitive inhibitor	rat Sprague-Dawley, liver microsomes	10 min, pH 7.4, together with: bufuralol 4 to 134 µM		Ki	290 ± 45.8 µM
Cn1cnc(Cn2c(=O)[nH]/c(=N\c3cc4cn(C)nc4cc3Cl)n(Cc3cc(F)c(F)cc3F)c2=O)n1			healthy Japanese adults, plasma	oral, 375 mg, day 1, fasted, with midazolam		Cmax	18100 ng/mL
